Experimental data gathered from unrelated publications.
Every numbered part comes from another study and shows a few of its results, in no order. Several values in a cell are separate wells, animals, samples, runs or records.
Sequence of UniProt P15056 (whole entry, looked up): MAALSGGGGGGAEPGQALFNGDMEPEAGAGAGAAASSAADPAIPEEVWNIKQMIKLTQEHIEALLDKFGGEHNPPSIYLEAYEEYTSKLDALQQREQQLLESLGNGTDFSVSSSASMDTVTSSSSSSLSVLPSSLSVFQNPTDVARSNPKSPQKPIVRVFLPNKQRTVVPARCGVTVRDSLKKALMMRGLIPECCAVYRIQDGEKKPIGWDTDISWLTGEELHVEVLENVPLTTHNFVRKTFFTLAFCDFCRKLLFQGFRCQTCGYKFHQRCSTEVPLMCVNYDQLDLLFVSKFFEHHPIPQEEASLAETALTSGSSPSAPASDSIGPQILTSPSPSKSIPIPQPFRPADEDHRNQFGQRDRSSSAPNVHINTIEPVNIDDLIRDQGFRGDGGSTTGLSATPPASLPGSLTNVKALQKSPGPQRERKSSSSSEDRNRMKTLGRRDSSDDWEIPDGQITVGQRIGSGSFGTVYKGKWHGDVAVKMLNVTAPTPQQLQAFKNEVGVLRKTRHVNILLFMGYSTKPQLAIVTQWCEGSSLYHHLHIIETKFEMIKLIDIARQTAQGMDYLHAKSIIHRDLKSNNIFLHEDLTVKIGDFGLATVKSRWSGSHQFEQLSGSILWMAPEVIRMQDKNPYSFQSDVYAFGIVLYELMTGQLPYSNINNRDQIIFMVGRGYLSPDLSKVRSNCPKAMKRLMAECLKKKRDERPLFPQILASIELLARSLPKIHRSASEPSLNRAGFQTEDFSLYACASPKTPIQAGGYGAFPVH
Sequence of UniProt P00519 (whole entry, unmodified, looked up): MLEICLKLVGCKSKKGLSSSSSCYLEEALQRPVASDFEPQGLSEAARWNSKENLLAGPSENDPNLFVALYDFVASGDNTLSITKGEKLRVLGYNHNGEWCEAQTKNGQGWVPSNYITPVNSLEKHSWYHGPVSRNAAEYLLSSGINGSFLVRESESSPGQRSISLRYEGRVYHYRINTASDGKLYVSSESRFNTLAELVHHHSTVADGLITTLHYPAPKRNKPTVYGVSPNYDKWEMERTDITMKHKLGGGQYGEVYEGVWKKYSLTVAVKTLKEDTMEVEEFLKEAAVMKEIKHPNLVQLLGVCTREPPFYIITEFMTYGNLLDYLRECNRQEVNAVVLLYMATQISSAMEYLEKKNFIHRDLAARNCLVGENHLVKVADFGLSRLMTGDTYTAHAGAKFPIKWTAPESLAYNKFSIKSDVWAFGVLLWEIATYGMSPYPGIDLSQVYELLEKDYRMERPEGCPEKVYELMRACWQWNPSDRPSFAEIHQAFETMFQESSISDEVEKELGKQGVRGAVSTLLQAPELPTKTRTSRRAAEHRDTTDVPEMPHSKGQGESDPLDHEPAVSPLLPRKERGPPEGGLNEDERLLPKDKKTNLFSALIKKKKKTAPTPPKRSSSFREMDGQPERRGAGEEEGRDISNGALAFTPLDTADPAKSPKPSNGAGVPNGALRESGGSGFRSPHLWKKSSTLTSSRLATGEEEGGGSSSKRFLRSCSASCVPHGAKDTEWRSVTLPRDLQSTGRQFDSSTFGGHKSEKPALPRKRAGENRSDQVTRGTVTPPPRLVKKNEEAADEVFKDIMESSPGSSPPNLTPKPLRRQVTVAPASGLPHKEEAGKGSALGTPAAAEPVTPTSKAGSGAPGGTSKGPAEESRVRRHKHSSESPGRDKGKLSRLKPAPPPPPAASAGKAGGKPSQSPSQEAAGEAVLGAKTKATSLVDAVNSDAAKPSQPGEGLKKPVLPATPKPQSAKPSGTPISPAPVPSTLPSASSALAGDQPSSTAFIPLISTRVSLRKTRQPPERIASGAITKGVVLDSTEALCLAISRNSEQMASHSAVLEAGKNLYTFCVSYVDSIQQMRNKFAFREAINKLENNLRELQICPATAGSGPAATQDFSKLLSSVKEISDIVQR
Sequence of UniProt Q15746 (whole entry, looked up): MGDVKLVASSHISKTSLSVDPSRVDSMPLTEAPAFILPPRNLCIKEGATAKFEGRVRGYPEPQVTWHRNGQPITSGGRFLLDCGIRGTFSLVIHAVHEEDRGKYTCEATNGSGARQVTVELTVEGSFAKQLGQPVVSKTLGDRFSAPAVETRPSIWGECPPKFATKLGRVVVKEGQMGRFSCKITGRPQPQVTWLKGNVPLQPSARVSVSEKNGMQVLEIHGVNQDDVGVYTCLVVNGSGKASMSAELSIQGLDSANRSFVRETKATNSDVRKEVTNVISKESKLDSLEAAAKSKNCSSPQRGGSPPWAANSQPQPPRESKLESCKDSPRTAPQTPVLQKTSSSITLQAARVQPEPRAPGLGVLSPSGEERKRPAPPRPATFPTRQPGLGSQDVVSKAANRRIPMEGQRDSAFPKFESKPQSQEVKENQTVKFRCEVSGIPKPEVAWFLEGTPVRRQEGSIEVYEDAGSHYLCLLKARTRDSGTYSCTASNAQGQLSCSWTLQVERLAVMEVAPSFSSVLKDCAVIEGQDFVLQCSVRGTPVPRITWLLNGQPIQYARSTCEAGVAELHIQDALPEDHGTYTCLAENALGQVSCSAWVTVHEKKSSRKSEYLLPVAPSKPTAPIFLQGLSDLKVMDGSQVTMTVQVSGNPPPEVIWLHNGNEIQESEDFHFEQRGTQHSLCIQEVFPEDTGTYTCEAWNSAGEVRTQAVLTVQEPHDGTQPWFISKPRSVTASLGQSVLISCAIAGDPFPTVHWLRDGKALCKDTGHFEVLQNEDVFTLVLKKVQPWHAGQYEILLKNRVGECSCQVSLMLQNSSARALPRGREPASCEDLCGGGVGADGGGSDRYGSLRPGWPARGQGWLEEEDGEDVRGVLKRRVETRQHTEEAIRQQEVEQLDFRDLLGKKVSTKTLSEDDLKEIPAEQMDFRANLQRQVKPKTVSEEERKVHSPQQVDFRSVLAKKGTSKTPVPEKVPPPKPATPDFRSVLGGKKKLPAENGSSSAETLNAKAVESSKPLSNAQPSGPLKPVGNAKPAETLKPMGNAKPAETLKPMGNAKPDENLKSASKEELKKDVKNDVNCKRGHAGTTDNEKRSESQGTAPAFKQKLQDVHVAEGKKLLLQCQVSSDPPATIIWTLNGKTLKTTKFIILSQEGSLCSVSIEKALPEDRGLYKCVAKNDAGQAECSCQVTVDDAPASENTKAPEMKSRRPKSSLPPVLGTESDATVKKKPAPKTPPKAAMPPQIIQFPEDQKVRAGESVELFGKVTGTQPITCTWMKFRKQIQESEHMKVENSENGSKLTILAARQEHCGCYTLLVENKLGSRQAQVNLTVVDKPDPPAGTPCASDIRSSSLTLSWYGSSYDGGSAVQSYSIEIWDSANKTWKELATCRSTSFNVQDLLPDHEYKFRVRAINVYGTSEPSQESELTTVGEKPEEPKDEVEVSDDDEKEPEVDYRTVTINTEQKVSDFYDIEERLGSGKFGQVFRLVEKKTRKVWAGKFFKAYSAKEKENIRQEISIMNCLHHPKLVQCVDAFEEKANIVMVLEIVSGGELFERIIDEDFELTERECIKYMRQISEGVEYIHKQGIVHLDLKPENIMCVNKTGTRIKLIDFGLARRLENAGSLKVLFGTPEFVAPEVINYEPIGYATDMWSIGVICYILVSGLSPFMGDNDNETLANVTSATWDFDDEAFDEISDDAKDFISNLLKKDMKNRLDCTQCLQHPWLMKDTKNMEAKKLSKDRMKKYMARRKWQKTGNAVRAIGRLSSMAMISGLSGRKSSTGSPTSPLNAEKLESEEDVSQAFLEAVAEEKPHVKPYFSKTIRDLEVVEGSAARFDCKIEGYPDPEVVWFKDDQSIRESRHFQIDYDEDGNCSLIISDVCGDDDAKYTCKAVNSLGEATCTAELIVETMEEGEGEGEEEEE
Sequence of UniProt Q9NYY3 (whole entry, looked up): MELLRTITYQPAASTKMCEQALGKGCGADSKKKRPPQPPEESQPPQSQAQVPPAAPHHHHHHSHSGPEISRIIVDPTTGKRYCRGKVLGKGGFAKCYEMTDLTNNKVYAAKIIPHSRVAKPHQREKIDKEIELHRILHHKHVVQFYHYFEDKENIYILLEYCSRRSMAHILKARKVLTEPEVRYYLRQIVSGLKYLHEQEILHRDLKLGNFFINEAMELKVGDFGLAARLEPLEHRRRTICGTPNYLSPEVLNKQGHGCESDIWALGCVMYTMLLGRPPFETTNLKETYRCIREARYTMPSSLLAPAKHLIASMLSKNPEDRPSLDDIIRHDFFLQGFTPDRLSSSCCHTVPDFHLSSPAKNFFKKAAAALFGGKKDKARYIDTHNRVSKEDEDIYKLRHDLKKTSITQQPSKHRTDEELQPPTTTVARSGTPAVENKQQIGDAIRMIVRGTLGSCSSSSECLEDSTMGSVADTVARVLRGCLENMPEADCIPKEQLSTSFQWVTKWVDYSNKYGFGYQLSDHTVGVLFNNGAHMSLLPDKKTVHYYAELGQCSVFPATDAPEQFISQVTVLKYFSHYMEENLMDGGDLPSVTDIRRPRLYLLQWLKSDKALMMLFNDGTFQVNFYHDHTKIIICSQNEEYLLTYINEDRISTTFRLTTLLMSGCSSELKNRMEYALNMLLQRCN
Sequence of UniProt Q15569 (whole entry, looked up): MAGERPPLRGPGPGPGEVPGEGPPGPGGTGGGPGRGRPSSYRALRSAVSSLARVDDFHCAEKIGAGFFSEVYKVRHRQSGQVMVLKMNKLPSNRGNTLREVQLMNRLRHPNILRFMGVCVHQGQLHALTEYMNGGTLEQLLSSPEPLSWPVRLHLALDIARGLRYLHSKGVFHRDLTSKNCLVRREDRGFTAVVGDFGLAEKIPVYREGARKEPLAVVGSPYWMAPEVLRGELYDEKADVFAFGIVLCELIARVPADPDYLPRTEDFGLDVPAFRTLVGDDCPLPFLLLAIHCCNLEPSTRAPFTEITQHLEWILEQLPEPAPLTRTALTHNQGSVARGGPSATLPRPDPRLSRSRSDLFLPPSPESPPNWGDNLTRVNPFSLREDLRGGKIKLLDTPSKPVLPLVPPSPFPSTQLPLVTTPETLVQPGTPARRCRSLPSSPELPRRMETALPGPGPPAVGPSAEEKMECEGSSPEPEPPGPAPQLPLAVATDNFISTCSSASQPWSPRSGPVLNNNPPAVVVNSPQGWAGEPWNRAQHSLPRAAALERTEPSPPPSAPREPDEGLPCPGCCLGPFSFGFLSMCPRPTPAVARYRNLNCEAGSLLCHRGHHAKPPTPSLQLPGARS

Set 1
Species: human
Sample: microsomes or S9
Concentration: 2 µM
Time: 0.5 h
The remaining compound of `CCCc1c(C(=O)O)cnn1-c1nc(CC)cc(=O)[nH]1` is reported as over 99.9%.
The remaining compound of `Cc1ccc(Cl)c(OCC(O)Cn2cnc3cc(C)c(C)cc32)c1` (stereo not drawn) is reported as 6.47%.
`COc1cc(=O)[nH]cc1C(=O)N1CCN(C)c2ncccc2C1` gave a remaining compound of over 99%.
The remaining compound of `CC1CCN([S+]([O-])C23CC4CC(CC(C4)C2)C3)CC1` (stereo not drawn) is reported as 9.52%.
`Cn1cnnc1C1CCCCN1S(=O)(=O)c1cccc2cccnc12` (stereo not drawn) has a remaining compound of 77%.
`CCOC(=O)c1c(-c2ccccc2)n(C#Cc2ccccc2F)c2ccccc12` gave a remaining compound of 12.9%.

Set 2
Structure (SMILES): c1ccc(-c2n[nH]c3c2oc2ccccc23)cc1
Effect on: enzyme activity
Action: inhibitor
Concentration: 0.5 µM
Baseline: control
It gave 109% for remaining activity (RPS6KA3 (Homo sapiens, UniProt P51812)).
It gave 98.3% for remaining activity (SIK2 (Homo sapiens, UniProt Q9H0K1)).
It gave 95.6% for remaining activity (TEC (Homo sapiens, UniProt P42680)).
SRPK1 (Homo sapiens, UniProt Q96SB4) — remaining activity: 113%.
The remaining activity was 93% (SGK2 (Homo sapiens, UniProt Q9HBY8)).
It gave 95.6% for remaining activity (Cyclin-dependent kinase 2, with cyclin E (CDK2, Homo sapiens, UniProt P24941)).
It gave 94.9% for remaining activity (PAK1 (Homo sapiens, UniProt Q13153)).
It gave 84% for remaining activity (CLK1 (Homo sapiens, UniProt P49759)).

Set 3
Compound: COc1cc(C(=O)OCCCN2CCCN(CCCOC(=O)c3cc(OC)c(OC)c(OC)c3)CC2)cc(OC)c1OC
Technique: von Frey test
It gave 0.32 g and 0.4 g and 0.23 g and 0.29 g for “paw withdrawal threshold” (mouse, CFA inflammatory pain; intravenous, dose not given, 3 h post-dose, third injection, day 5).
It gave 0.32 g and 0.1 g and 0.04 g and 0.12 g and 0.02 g for “paw withdrawal threshold” (mechanical pain; mouse, STZ diabetic neuropathy; intravenous, 30 mg/kg, 24 h post-dose, first injection, day 8).
The “paw withdrawal threshold” was 0.27 g and 0.29 g and 0.11 g and 0.23 g and 0.32 g (mechanical pain; mouse, STZ diabetic neuropathy; intravenous, 30 mg/kg, 24 h post-dose, third injection).
For mouse, CFA inflammatory pain; intraplantar, 10 µg, 1 h post-dose, day 3 after CFA: “paw withdrawal threshold” read 0.51 g and 0.65 g and 0.32 g and 0.75 g and 0.44 g.
For mouse, CFA inflammatory pain; subcutaneous, 10 mg/kg, 24 h post-dose, second injection, day 3: “paw withdrawal threshold” read 0.29 g and 0.19 g and 0.23 g.
It gave 0.4 g and 0.17 g and 0.29 g and 0.13 g and 0.06 g for “paw withdrawal threshold” (mechanical pain; mouse, STZ diabetic neuropathy; intravenous, 30 mg/kg, 3 h post-dose, first injection, day 8).

Set 4
SMILES: CNCc1ccccc1-c1csc([C@@H](C)Nc2nc(C)nc3cc(OC)c(OC)cc23)c1
Effect on: cell-free assay
Technique: competition with immobilised ligand
Concentration: 1 µM
For DCLK3 (Homo sapiens, UniProt Q9C098): remaining binding read 95%.
For HUNK (Homo sapiens, UniProt P57058): remaining binding read 100%.
It gave 86% for remaining binding (Tyrosine-protein kinase ABL1, non-phosphorylated (ABL1, Homo sapiens, UniProt P00519, F317L)).
For MAP2K1 (Homo sapiens, UniProt Q02750): remaining binding read 86%.
The remaining binding was 100% (PIK3C3 (Homo sapiens, UniProt Q8NEB9)).
Insulin receptor (INSR, Homo sapiens, UniProt P06213) — remaining binding: 79%.
The remaining binding was 96% (PIK3CB (Homo sapiens, UniProt P42338)).
For ERBB3 (Homo sapiens, UniProt P21860): remaining binding read 76%.
For PRKAA2 (Homo sapiens, UniProt P54646): remaining binding read 97%.
NTRK3 (Homo sapiens, UniProt Q16288) — remaining binding: 88%.
The remaining binding was 99% (CAMK2D (Homo sapiens, UniProt Q13557)).
For EPHA7 (Homo sapiens, UniProt Q15375): remaining binding read 100%.
The remaining binding was 100% (PRKG1 (Homo sapiens, UniProt Q13976)).
MYLK (Homo sapiens, UniProt Q15746) — remaining binding: 84%.
It gave 83% for remaining binding (TESK1 (Homo sapiens, UniProt Q15569)).
The remaining binding was 100% (CAMK2G (Homo sapiens, UniProt Q13555)).
The remaining binding was 84% (SRPK3 (Homo sapiens, UniProt Q9UPE1)).
KIT (Homo sapiens, UniProt P10721, D816V) — remaining binding: 81%.
For CDK14 (Homo sapiens, UniProt O94921): remaining binding read 100%.
The remaining binding was 82% (PLK2 (Homo sapiens, UniProt Q9NYY3)).
STK16 (Homo sapiens, UniProt O75716) — remaining binding: 97%.
BRAF (Homo sapiens, UniProt P15056) — remaining binding: 100%.
CAMK1G (Homo sapiens, UniProt Q96NX5) — remaining binding: 93%.
The remaining binding was 100% (PKN1 (Homo sapiens, UniProt Q16512)).
The remaining binding was 74% (PRKCE (Homo sapiens, UniProt Q02156)).

Set 5
Cell line: mouse MPNST tumor cells
Technique: high-content nuclear imaging
Item: cell number
Concentration: 10 µM
Time: 12 h
Notes: mean of 2 replicates
Baseline: plate mean
Reading: higher = more cells
The nuclei count of `CC(C)(CO)Cc1cc(C(C)(C)C)c(O)c(C(C)(C)C)c1` is reported as 1.21 z-score.
`Cc1c(F)cc(C(=O)NC2CC2)cc1-c1c(F)cn2c(C(C)(C)C)nnc2c1F` has a nuclei count of -0.219 z-score.
The nuclei count of `CCC(c1ccc(F)c(F)c1)n1c(C(=O)OC)c(-c2ccno2)[nH]c1=S` (stereo not drawn) is reported as 2.33 z-score.
With `O=C(Nc1ccc(C(O)(C(F)(F)F)C(F)(F)F)cc1)c1ccc(C(F)(F)F)cc1` the nuclei count was -1.83 z-score.
The nuclei count of `O=C(NCC(O)CO)c1c(I)c(C(=O)NCC(O)CO)c(I)c(N(CCO)C(=O)CO)c1I` (stereo not drawn) is reported as 0.867 z-score.
For `O=P(O)(O)C(O)(Cn1ccnc1)P(=O)(O)O`, the nuclei count was 0.656 z-score.
